Assay results collected from several papers.
A part holds a random share of what one study measured. Changes are numbered by the printed parent chain.

Series 1 — technique: RNA Bind-n-Seq; form: RNA; sample: in vitro; concentration: 365 nM; reference: no-protein control; direction: higher = stronger binding
Target: RNA binding protein fox-1 homolog 2, RRM domain, GST-SBP tag (RBFOX2, Homo sapiens, UniProt O43251-10, residues 100-194)
Setting: natural RNA segment, single round, ends assumed
Shared flanks, not repeated: GGGAGUUCUACAGUCCGACGAUC … UGGAAUUCUCGGGUGCCAA
Target sequence (chain): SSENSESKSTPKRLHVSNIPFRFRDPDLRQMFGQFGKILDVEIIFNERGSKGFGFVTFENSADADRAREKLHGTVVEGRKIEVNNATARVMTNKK
Sequence	RBNS enrichment (R)
UCUUGGGCAAUAAUGCAUAGGAGUUCUUGAUACCCCUUCAUUGAUUACUGUGUAUCAGUUCUUUGUUAGGCAUGAACGUCUUUAUUAAUCCAUCAUUCUUUUCUUCAUUC	0.401
UGUUUUUCAUAGUUUAUAAUCUGAUGGCUAACUAACUUUCAAAACAGCUUUUAACUAAGUUUGUUGUAGGAGAAAUGACUGCGGUAAUUUCCAGUUCUAUAAUGUUUCAU	0.579
CCUGCUCCUCAAAUUUUGAUGUGAGUGCCCCUUCCCUGCUGGGGAGAGCUGCUGCCACCGCAUCUCAAUACAACAGCACUGCAAAAUGAAGCAACAAGUCAGAAUCAAAU	0.259
GCCAAACCAGGCCUCCACCGACCCACCUGCCUGGAGAUUUCCUCUAUGUAGGCAACCCUGCCACUGCUGGGCACCUCUAACUGGCCCUUUGGCCCCACCCAAGCCCAAAC	0.267
AUUGAGAAUCAUGAUGAACUUUGGGUGUGUCUGUCCUGUGAGGAAGCGUGUCUGGAAAGGGGUUCAUGCCUCUAAGGGGCUUACGGAGAUGCUGAGGUACUGCCUCGCCU	0.983
CAGUCUCAGGAACUGUUGUGGUGCCCCUGAGCCCACAGUCAUCUCCAGAGUCCACCUGGAAGCCUGUUCCCCUCUCCUCGGCUCCUGGUCCACCAGUGCAUGGCAGUGCC	0.361
UCCAGAAAGAAGUUUGUAAAGAAAAGGUGACAUUGCAAGCCCUGCAUGCAAAGCAGACUGCAGCUAGUUAAGAGGAGGCUGCAGUAUCAUCCCUAGUAUCUGCUCUGCAA	6.9
AUUUGUUUCAACUGAAUUUUGGUGGUGUCAGUGCCAUUAUCUAGCACCCUGAUUUUUUUUUUUUUACUAUAACCAGGGUUUCAUUCUGUCUUUUUCCACUGAAGUGUGAC	0.575

Series 2 — technique: aptamer microarray, sandwich; form: DNA with 2'F-ANA; sample: in vitro; concentration: 200 nM; with: Cy3 exosite-II aptamer, 400 nM; direction: higher = stronger binding; sequence: GGTTGGTGTGGTTGG
Target: Prothrombin, mature alpha-thrombin (F2, Homo sapiens, UniProt P00734)
Setting: whole 15-mer aptamer, many near background
Modification	mean fluorescence intensity [a.u.]
2'F-ANA at 1 3 4 7 12 14	103
2'F-ANA at 1 3 4 5 7 8 9 10 12 14	70
2'F-ANA at 1 2 5 7 8 11 13 14	48.1
2'F-ANA at 3 8 10 11	509
2'F-ANA at 4 6 8 9 10 14 15	86.1
2'F-ANA at 1 2 3 5 7	78.4
2'F-ANA at 1 5 6 9 13 14 15	50.8
2'F-ANA at 3 4 6 8 9 10 11 12 13	195
2'F-ANA at 5 7 12 13	115
2'F-ANA at 2 4 5 8 10 11	68.8
2'F-ANA at 6 7 9 10 11 12 13 14 15	120
2'F-ANA at 1 2 6 7 8 9 10 12 13 15	72.4
2'F-ANA at 3 5 12 13 14	95.8
2'F-ANA at 2 3 6 10 12 14 15	259
2'F-ANA at 1 3 5 6 8 9 11 13 15	56.5
2'F-ANA at 1 6 7 9 10 11 13 15	74.2
2'F-ANA at 1 8 12	409

Series 3 — technique: protein-binding microarray; form: double-stranded DNA, one strand shown; sample: in vitro; concentration: 2540 nM top; setting: 60-bp whole probe; with: salmon DNA 0.4 mg/ml; reference: random background probes; direction: higher = stronger binding; shared flanks, not repeated: GCCTAGCAC … GTCTTGATTCGCTTGACGCTGCTG
Target: Interferon regulatory factor 3, full length, phosphomimetic (IRF3, Homo sapiens, UniProt Q14653, residues 1-427, S386D/S396D/S398D/S402D/T404D/S405D)
UniProt Q14653, sequence (whole entry, unmodified, looked up): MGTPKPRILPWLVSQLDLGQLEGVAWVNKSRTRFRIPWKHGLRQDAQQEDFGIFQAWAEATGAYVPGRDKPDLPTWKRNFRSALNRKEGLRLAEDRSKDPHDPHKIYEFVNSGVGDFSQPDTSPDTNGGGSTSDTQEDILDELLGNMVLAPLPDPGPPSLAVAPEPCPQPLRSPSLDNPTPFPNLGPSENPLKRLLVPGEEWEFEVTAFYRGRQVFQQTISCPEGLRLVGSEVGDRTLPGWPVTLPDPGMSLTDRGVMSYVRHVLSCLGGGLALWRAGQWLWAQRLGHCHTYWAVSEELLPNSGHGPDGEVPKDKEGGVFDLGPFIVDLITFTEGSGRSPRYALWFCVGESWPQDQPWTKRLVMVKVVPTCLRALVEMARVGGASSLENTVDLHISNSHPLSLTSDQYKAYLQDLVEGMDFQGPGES
Sequence	fitted relative affinity [z-score]
GTCATTCTCAACCCTGGTGCTGTGCTA	1.18
TTAGATATCAGTTTCGACTAGTGCTAG	3.2
GACGGTTTCGGTTTCTGGACGTGCTAG	9.56
GACGATATCGGGTACCGAGACGTGCTA	0.0604
ATGATGTGTCAAAAATTGCAGTGCTAG	-0.116
TTAGGTTTCGGGTTTCGGTCAGTGCTA	5.99
TTAGGTCTCGGACTGGGTAAGTGCTAG	-0.266
TTAGGACTTGGTATCGGTTAGTGCTAG	1.41
ACTCGTGACCCTCTCAAAGGGTGCTAG	0.296
GACGGTCTCCTACTGCTGACGTGCTAG	1.13
TTAGATTTCAGACTAGATTAGTGCTAG	1.03
GACGGTATCGACTTTCGGTACGTGCTA	2.12

Series 4 — target: CCNA2, cyclin fold, Cln2 fusion (human); technique: yeast growth competition, sequencing; sample: yeast; setting: strong parent motif; reference: not given; direction: higher = stronger binding
Starting sequence: CDC25A docking peptide (human); PPHRRRLLFACSP
Substitution	normalised enrichment score
PPHRAAAAFACSP [R5A R6A L7A L8A]	0.232
PPHRRRLLFARSP [C11R]	1.88
PPHRRYLLFACSP [R6Y]	1.11
PPHRRRLLFVCSP [A10V]	2.55
PPHRRRLLFAESP [C11E]	3.43
PPHRRRLLFACSF [P13F]	1.59
PPHRRCLLFACSP [R6C]	0.957
PPHRRRLLFPCSP [A10P]	3.41
PPPRRRLLFACSP [H3P]	3.94
PPHRRRLLFWCSP [A10W]	2.49
PPHHRRLLFACSP [R4H]	0.906
PPNRRRLLFACSP [H3N]	1.54
PPHRRELLFACSP [R6E]	1.02
PPHRRRLIFACSP [L8I]	2.95
PPHCRRLLFACSP [R4C]	3.95
PPHRRRLLFAGSP [C11G]	3.34
PPHRRRDLFACSP [L7D]	0.411

Series 5 — technique: DHFR PCA, deep sequencing; sample: yeast; with: (+)-ABA 17 µM; reference: wild-type fitted maximum; direction: higher = stronger binding
Target: ABI1, truncated, D143A, DHFR fusion (Arabidopsis thaliana)
Setting: methotrexate growth selection, single substitutions
Starting sequence: PYL1, truncated, DHFR fusion (Arabidopsis thaliana); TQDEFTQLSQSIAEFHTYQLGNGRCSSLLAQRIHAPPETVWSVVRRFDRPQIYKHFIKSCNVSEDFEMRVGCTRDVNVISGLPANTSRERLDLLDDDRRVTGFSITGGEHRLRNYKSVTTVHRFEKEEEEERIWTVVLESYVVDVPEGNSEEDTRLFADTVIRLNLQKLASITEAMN
Substitution	relative binding score [%]
T73Y	89.4
P146K	-0.625
E129Q	85.9
I79C	89.6
I57M	23
I79G	22.1
K168D	9.07
H110F	5.97
G71T	-3.24
E131W	56.3
F66Y	73.3
R49K	88.6
H55P	102
V76T	30

For quick reference, copied from above (series 2):
Modification	mean fluorescence intensity [a.u.]
2'F-ANA at 1 5 6 9 13 14 15	50.8
2'F-ANA at 3 4 6 8 9 10 11 12 13	195
2'F-ANA at 5 7 12 13	115
2'F-ANA at 2 4 5 8 10 11	68.8
2'F-ANA at 6 7 9 10 11 12 13 14 15	120
2'F-ANA at 1 2 6 7 8 9 10 12 13 15	72.4
2'F-ANA at 3 5 12 13 14	95.8
2'F-ANA at 2 3 6 10 12 14 15	259
2'F-ANA at 1 3 5 6 8 9 11 13 15	56.5
2'F-ANA at 1 6 7 9 10 11 13 15	74.2
2'F-ANA at 1 8 12	409
